Experimental data pooled from the literature.
Each numbered part is a random draw from the data of one study; scales do not carry over between parts.

Sample 1
Target: Histone acetyltransferase KAT6A, winged helix 1, GST fusion (KAT6A, Homo sapiens, UniProt Q92794, residues 1-85)
Technique: protein binding microarray
Form: double-stranded DNA, one strand shown
Matrix: in vitro
Concentration: not given
Setting: 8-mer, flanks averaged, mean of 2 arrays, mostly near background
Relative to: not given
Direction: higher = stronger binding
Residues (chain): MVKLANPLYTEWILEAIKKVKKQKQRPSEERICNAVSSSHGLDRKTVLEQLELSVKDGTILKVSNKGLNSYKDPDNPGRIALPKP
`CACGGCCG` gave an E-score of 0.44.
The E-score of `AAAAGGTC` is reported as -0.208.
For `GTCAGTGA`, the E-score was -0.105.
`AGAGCTCA` has an E-score of -0.141.
`CCATGGGC` has an E-score of -0.149.
The E-score of `CATGACAA` is reported as -0.212.
`ACCGAAGG` gave an E-score of -0.0115.
With `ACTAAATA` the E-score was -0.102.
`ACGGTTCC` has an E-score of 0.149.
`ACAGGCAA` has an E-score of -0.176.
For `CTCAAAGC`, the E-score was 0.0888.
The E-score of `GCACGATA` is reported as 0.044.
The E-score of `AGCGGGCA` is reported as 0.256.
For `CACGCACC`, the E-score was 0.262.
For `GCTCCGTA`, the E-score was 0.297.
`AGGACGGC` has an E-score of 0.319.
`CTCCGGCC` gave an E-score of 0.246.
With `GAGGCGCC` the E-score was 0.257.
`TACGTCAA` gave an E-score of -0.0317.
With `ATCAATGG` the E-score was -0.193.
For `AGGGCAAA`, the E-score was -0.0299.
The E-score of `AAAATCGC` is reported as 0.093.
`ACGGGCAT` has an E-score of 0.295.
`AAGGAGTG` has an E-score of -0.0341.
The E-score of `CATTTACA` is reported as -0.1.

Sample 2
Target: Sal-like protein 4, full length isoform B (SALL4, Homo sapiens, UniProt Q9UJQ4-2, residues 1-616)
Technique: universal PBM
Form: double-stranded DNA, one strand shown
Matrix: in vitro
Concentration: not given
Setting: 8-mer, flanks averaged, mean of replicates
Direction: higher = stronger binding
For `TACGCGCA`, the E-score was -0.0804.
With `ACTGAACC` the E-score was -0.148.
The E-score of `AAAACATG` is reported as 0.144.
For `GCCGGCCC`, the E-score was -0.39.
For `CCAGAGAC`, the E-score was -0.286.
`AAGAACCT` has an E-score of -0.0195.
`CTATTAAA` has an E-score of 0.227.
For `AGACCCGA`, the E-score was -0.185.
For `AGTCCCGA`, the E-score was -0.215.
For `ACGCAGGG`, the E-score was -0.129.
`CCCTAGTA` gave an E-score of 0.0227.
With `AATGGCGC` the E-score was -0.195.
For `CACTAGGA`, the E-score was -0.143.
`GTTTGAAA` gave an E-score of 0.173.
The E-score of `CCGCTTGC` is reported as -0.221.
For `AGAGCTTA`, the E-score was 0.0268.
With `ATGCGATA` the E-score was 0.195.
`AATTGTGT` gave an E-score of 0.138.

Sample 3
Target: RING finger protein unkempt homolog, zinc fingers 1-6, GST-SBP tag (UNK, Homo sapiens, UniProt Q9C0B0, residues 30-357)
Technique: RNA Bind-n-Seq
Form: RNA
Matrix: in vitro
Concentration: not given
Setting: RNA with constant flanks, human and mouse sites, ends assumed
Relative to: input RNA pool
Direction: higher = stronger binding
All sequences stand within: GGGAGUUCUACAGUCCGACGAUC … CAACAGAGGAUUGAGCAUCA
Residues (chain): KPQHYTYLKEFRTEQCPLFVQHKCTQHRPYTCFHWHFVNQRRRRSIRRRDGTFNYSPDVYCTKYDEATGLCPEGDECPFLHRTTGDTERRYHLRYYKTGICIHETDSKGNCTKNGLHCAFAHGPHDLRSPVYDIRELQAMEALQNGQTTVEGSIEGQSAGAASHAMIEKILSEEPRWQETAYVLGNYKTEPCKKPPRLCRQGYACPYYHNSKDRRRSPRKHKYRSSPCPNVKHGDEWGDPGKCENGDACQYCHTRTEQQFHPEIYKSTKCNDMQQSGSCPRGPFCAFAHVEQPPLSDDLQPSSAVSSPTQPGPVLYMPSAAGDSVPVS
`AAUUCACAGGAAGUGAGAUUCGUGUGAGGGAUGACAAGAUGCCUUUGGCGCACCUUGCAAUAGCUGUUGAAGCUGUUGGUUGGGCACAUCCAGAUACAAUCUGUCUCAUGGUUGCAAACA` gave a bound/input enrichment of 0.116 ratio.
For `UGUCCCUCUGCCCCAUCCCUCACAUGGGAUGGUCCCUAGGCCAGGCCUCUCUUCUCUGCCUAGCUACCCCUGUGCUACCUCCCACAUGCUGGGUUCUGGAAUGCAGAGCCUAGGCUCUCU`, the bound/input enrichment was 0.165 ratio.
The bound/input enrichment of `CGGAAGUGAUCCCCUGCGUGGCUGGGCUGCUCGGGUUAGAUCGUCAGGAAAAGCCUAAAGAUUAGACUGUAAGAAAAGAAAAUAGAAGCCAUGUUUCGAAGACCUGUAUUACAGGUACUU` is reported as 1.89 ratio.
For `GAGUUAGGAUCUGAAGGAAAGGUAGAAGAAGCCCAGGGAAUGAUGAAAUUGGUUGAACAGUUAAAGGAAGAGAGAGAAUUACUAAGAUCUACAACCUCGACUAUAGAAAGUUUUGCUGCC`, the bound/input enrichment was 40.4 ratio.
For `ACCACUGCACUUUCCAGACAAGCAGGCCAAGAAACUCUUUCAGUCCUCAAGUUCACCAAGUCUUAGCAUACAGUGUGUGCCCAGAACUACUGGAAACUGAAUGCAUUUAGCAUAUUUUGA`, the bound/input enrichment was 0.475 ratio.
With `ACCUUGAAGGAUAGGUUUUCUUUCUGAUGGGCCAAAGUACUGGAAGCAAAGUACUUUCUGUAGUAGCCCAUGCUUACUUGUGACACUUUUAAUAUGAAAUGUAUCCCCAGACCAAAUGUC` the bound/input enrichment was 0.23 ratio.
`CAUACACAACGAUAGAUGGAUAAACAAAACAUAAAUACUUAAUCAUAGACAGGCUGAGGGUAGGGGGAAGCUGGCGCUUACCAUUUUGUAAUCACUACAAUAAUGUCUGAGGGAAAUAUC` gave a bound/input enrichment of 1.08 ratio.
`CUCAGUGAUCAUACACGGAACUCUGCUGAAGGUACAGAAUAUUUCAAAAUGCUUGUAGAUGUUUUUGCUCCAGAAUUUCGAAGGCCAAAGAAUAUACAUCUCCGAAAUUUCUAUAUCAUU` has a bound/input enrichment of 0.0959 ratio.
With `GUAUGGAAAAUUCAUUAAGAGACAGGCUGUUAAGUCAGGGUUUUUUCUUUAAAAGGUACUUUUUAAUUUUAAAUAUUUUAGUUUAAAAUAAUGAAAUUUGACAAAAGAUCUCUUCAUUAU` the bound/input enrichment was 0.772 ratio.
`CAGAGUUGGACAGACUUCUCAAGGCUCCAUCUUUCCAAUAAAUUGGCCAUUUUUGGAAUUGGCUAUAACACCCGCUGGAAAGAGGAUAUUCGUUACCAUUAUGCUGAGAUCAGCUCACAG` has a bound/input enrichment of 0.143 ratio.
For `CGCGAACGCGAGCCCCGCCCUGCGCGCCUUCCCUCCUGCGCUCGCCGGCCUCUUCUGCCUCUUAGAACCUUCCUGCGGUCGUGCUUGCAUCUCGCUGCUGCAGCCUCCCGGGCUCCGGUC`, the bound/input enrichment was 0.221 ratio.

Sample 4
Target: RNA binding protein fox-1 homolog 2, RRM domain, GST-SBP tag (RBFOX2, Homo sapiens, UniProt O43251-10, residues 100-194)
Technique: RNA Bind-n-Seq
Form: RNA
Matrix: in vitro
Concentration: 365 nM
Setting: natural RNA segment, single round, ends assumed
Relative to: no-protein control
Direction: higher = stronger binding
All sequences stand within: GGGAGUUCUACAGUCCGACGAUC … UGGAAUUCUCGGGUGCCAA
Residues (chain): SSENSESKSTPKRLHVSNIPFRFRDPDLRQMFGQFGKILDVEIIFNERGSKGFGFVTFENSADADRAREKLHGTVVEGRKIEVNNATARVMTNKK
`AGUUAUAUGGGCCUGUAACACAAACCUGAGUUUUAACCUAGUUCUAAUUUUAUAAGGCAUCUUAUUUUAUCUUUCAGAGAGCUCUACUUCUGGCUCAGGGAAUCUGAUAG` — result for “RBNS enrichment (R)”: 0.48.
`CAGAGGAGUGUGAAUGUGUGUUUGUUGCUGGCUGAAUGGCAAUAGAUGUCUAAGGUGGAUUCAGUGUCUGGCACACUGAGACACCUCCAAGAAGGAGAUUGAUGCAUCAG`: “RBNS enrichment (R)” 5.25.
Under “RBNS enrichment (R)”, `CAGCAGCUUCGCACAAUACCAAAGUUUUAAAGUUGGUGAUAAAAAGUCUUUUUAUGAACUAAAUAUUGGAGAAUAUUCUGGCACAGCUGGAGAUUCCCUGUCAGGAACUU` is recorded as 0.41.
`UCUGCUGCAGGACGCAGAAAGGAUGUAGGGGAGAGACUGCCUGUGCACCUAACCAACACCUCCAGGGGCUCGCUAAGGAGCCCCCCUCCACCCCCUGAAUGGGUGUGGCU`: “RBNS enrichment (R)” 0.435.
For `UCCUCCCUGGGCCUGACAACGGGAGUGGUGGGUGGGUGAGAACAGGUUCUGAGAGGGGGCUUCUAGGAAGGCCCCAGCCCUAGUCCUAGGCGACUUGAAUAAAGUGGGAG`, “RBNS enrichment (R)” read 0.57.
For `UAGCAAAUCAUGGAAUGUUCUGAGUCCCUGAGGGUUUACUGUGAAGUGCUGAGGACAGUGUUGACAACUAACUCGUUUUCCUAGAUGGAAACGGAGACAUUGACCCCUCC`, “RBNS enrichment (R)” read 0.355.
`AAAGCACUCUGUUCUUCGCCUACUCUGUAAUCGUUUUGUCAUAAUGAGCCAUGAAAAAAGUAAUGAACUUGUGCUGUUAAUCGUCACUGUAAUGAGAAGUCUUACGUACA` — result for “RBNS enrichment (R)”: 0.544.
`AAGCCCUUCUGUGGGUCACCUUUCUCCUCACCCAGCCCCUUGCUCUUCCCUUUUGAAAGGCCCGUGUGUUUUCUUUCCUUACCCUGUGCUUGCUCAUGUCUACUCCGGUU`: “RBNS enrichment (R)” 0.799.
`GACAAGUUCAUUUCAUCUUGAGAUCAUGGUGAAAUAUUUUGGAUAUAUAAAUUCCUUAAGCUAUUGUAACCAUGUUUUAUUGCAAAGAUGUAAAAUAUGCCAGAUGUGUG`: “RBNS enrichment (R)” 0.407.
`AAAUCUUUCUAGUUGGGCUUUUUGAUUUAUUUUAAAUGGAUAUUGCUCUUUGACUUGGUUUCUUCUUGCUCCCAUAUCAUCAAAUAUUGGAGCCUAUAAUUUUUUUACCU`: “RBNS enrichment (R)” 0.811.
`UCCAGCCAUUACAGAGUGAAGGUGCAACCCCAUGUGGGAGCCCCACUAGUGACCACUCCCUGAGAGGCCGCAAUCAGGUGGGAAUGAAAAGGCCUCCUCCAGCGGGGCAG` — result for “RBNS enrichment (R)”: 0.37.
Under “RBNS enrichment (R)”, `ACAAACCACCUCUACAUAUUAUGGAAAGAAAAUAUUUUUGUCGAUUCUUAUUCUUUUAUAAUUAUGCGUGGAAGAAGUAGACACAUUAAACGAUUCCAGUUGGAAACAUG` is recorded as 0.482.

A few entries again (sample 2):
`AAGAACCT` has an E-score of -0.0195.
`CTATTAAA` has an E-score of 0.227.
For `AGACCCGA`, the E-score was -0.185.
For `AGTCCCGA`, the E-score was -0.215.
For `ACGCAGGG`, the E-score was -0.129.
`CCCTAGTA` gave an E-score of 0.0227.
With `AATGGCGC` the E-score was -0.195.
For `CACTAGGA`, the E-score was -0.143.
`GTTTGAAA` gave an E-score of 0.173.
The E-score of `CCGCTTGC` is reported as -0.221.
For `AGAGCTTA`, the E-score was 0.0268.
